Measured values of several laboratories.
± gives the spread as reported.
Faah: Fatty-acid amide hydrolase 1 (Faah, Rattus norvegicus, UniProt P97612)
UniProt P97612, sequence (whole entry, looked up): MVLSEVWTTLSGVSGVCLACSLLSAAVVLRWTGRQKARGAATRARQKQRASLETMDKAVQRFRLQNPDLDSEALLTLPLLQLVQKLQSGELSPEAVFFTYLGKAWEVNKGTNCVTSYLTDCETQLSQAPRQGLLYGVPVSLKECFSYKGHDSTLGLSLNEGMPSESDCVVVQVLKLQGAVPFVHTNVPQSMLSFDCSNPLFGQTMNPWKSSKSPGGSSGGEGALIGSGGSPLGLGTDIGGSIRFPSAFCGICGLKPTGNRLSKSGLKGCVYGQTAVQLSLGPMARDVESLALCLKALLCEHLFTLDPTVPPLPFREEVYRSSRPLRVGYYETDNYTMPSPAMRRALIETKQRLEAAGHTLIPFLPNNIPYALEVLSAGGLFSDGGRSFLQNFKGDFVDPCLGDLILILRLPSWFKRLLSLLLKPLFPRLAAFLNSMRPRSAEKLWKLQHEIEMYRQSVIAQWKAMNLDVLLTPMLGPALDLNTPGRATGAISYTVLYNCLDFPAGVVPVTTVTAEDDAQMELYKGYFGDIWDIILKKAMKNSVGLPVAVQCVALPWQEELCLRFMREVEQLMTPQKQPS
UniProt P17302, sequence (whole entry, looked up): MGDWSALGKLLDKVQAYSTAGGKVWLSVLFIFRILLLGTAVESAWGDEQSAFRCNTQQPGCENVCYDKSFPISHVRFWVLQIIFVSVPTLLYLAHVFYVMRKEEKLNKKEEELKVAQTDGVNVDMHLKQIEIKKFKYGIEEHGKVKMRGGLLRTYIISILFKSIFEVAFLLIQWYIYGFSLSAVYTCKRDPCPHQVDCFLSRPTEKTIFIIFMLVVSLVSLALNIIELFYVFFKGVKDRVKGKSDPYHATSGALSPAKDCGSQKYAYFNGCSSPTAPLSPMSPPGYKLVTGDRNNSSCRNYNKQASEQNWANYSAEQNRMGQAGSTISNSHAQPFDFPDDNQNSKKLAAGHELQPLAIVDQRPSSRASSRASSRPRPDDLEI
UniProt P04746, sequence (whole entry, looked up): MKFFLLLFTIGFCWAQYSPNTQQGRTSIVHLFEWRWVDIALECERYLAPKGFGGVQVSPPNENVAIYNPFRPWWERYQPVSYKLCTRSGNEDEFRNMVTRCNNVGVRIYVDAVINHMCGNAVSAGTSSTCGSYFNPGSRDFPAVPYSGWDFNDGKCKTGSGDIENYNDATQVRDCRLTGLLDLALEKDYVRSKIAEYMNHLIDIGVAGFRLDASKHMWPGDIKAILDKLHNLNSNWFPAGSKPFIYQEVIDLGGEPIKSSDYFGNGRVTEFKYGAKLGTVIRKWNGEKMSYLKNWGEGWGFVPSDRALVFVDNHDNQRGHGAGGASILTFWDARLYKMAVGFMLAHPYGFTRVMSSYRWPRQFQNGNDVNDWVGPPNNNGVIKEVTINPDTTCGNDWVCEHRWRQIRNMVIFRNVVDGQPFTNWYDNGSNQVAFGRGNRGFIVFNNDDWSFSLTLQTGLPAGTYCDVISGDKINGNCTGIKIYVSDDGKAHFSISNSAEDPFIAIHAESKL
UniProt Q13563, sequence (whole entry, unmodified, looked up): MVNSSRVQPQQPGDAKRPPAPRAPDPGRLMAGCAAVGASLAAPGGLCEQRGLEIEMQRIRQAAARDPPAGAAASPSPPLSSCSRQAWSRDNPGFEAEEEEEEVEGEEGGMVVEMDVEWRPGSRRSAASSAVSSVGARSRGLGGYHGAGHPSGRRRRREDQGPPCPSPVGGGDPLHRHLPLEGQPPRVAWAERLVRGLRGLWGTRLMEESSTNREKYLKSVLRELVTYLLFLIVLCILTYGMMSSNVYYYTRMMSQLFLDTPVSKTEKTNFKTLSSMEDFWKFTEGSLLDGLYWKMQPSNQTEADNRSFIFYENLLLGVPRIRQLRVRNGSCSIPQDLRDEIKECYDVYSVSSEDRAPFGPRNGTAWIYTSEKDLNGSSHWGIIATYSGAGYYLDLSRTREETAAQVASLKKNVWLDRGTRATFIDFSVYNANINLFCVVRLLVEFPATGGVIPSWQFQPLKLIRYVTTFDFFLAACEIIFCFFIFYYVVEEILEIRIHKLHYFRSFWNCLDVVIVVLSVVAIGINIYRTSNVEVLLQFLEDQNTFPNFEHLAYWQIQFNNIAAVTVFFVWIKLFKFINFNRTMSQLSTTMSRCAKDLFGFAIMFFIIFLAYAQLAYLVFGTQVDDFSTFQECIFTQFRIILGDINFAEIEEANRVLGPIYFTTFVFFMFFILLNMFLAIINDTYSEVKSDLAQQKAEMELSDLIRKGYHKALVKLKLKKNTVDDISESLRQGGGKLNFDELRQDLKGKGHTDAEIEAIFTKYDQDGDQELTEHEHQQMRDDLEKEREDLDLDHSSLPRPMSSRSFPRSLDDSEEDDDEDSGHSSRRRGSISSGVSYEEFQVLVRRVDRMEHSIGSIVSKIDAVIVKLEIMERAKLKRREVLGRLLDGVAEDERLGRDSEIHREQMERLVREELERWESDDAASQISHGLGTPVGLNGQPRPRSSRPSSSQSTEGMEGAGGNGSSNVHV
UniProt P16389, sequence (whole entry, looked up): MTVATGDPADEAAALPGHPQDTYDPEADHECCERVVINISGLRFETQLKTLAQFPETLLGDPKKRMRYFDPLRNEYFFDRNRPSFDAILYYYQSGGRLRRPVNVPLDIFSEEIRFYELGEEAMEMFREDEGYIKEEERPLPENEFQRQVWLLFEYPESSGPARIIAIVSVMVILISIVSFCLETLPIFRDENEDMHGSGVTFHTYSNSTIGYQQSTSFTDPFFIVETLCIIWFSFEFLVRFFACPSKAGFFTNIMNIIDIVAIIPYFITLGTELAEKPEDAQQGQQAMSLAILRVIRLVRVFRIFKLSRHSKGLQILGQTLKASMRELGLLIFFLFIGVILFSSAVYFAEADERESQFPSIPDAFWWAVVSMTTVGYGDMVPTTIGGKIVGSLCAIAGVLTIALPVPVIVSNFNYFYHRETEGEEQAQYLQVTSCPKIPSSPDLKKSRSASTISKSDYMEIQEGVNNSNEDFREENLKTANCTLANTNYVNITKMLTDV
UniProt B2RXH2, sequence (whole entry, looked up): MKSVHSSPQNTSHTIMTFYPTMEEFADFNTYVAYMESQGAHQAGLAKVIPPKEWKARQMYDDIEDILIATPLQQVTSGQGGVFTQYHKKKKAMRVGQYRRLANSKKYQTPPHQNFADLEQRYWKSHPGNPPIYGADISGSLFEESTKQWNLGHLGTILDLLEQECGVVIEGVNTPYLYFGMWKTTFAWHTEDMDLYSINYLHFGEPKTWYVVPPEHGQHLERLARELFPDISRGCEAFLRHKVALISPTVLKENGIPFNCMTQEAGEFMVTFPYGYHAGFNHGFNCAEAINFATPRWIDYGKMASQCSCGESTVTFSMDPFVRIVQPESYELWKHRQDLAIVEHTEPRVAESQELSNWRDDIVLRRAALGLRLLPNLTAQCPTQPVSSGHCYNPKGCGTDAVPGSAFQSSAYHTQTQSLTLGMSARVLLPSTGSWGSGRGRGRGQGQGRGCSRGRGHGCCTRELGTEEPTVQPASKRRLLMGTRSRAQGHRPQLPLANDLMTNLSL
UniProt Q96L34, sequence (whole entry, looked up): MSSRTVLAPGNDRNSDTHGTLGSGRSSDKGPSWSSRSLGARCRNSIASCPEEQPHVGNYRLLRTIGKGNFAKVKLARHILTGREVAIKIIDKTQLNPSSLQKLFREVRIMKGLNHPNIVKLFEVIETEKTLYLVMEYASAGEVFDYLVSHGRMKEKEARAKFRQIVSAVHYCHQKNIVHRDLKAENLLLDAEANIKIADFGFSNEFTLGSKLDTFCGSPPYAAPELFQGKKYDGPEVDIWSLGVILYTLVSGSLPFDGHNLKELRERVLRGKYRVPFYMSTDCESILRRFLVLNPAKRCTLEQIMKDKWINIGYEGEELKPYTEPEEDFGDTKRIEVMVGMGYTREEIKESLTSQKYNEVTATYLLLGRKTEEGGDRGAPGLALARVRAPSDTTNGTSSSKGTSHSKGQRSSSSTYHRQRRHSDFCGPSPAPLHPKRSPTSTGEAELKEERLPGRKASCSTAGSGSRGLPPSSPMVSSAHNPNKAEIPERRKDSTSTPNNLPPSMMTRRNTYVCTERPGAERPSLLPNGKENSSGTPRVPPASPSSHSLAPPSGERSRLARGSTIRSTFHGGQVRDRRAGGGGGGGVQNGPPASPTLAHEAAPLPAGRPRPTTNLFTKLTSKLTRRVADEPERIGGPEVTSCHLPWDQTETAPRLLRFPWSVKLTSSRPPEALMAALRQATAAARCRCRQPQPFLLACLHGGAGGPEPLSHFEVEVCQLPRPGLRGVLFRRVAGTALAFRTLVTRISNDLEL
UniProt P00383, sequence (whole entry, looked up): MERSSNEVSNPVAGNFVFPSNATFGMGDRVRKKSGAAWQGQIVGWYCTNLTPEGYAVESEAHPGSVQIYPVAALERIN
UniProt Q15561, sequence (whole entry, looked up): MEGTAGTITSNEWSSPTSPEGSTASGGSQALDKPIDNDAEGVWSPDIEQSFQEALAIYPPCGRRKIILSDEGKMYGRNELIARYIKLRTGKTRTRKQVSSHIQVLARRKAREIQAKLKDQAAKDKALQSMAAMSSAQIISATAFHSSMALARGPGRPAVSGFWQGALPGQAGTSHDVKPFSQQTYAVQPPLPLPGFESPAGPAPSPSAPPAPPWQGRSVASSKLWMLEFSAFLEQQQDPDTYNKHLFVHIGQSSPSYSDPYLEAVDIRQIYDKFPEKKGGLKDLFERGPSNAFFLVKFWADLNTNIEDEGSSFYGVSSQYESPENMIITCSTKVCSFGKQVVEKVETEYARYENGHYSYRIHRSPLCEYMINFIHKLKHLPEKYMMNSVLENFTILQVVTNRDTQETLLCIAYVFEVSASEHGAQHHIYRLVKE
UniProt Q13526, sequence (whole entry, looked up): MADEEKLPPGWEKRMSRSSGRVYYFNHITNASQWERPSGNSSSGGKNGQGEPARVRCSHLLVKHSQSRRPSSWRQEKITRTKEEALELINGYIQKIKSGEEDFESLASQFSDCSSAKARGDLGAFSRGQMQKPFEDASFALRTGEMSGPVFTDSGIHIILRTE

C[C@H](OP(=O)(O)O)[C@H]1NC(=O)[C@@H](CCCNC(=N)N)NC(=O)[C@@H](CCCNC(=N)N)NC(=O)[C@H](CCCNC(=N)N)NC(=O)[C@H](Cc2c[nH]c3ccccc23)NC(=O)[C@H](Cc2ccc3ccccc3c2)NC(=O)[C@@H]2CCCCN2C1=O  IC50 (Peptidyl-prolyl cis-trans isomerase NIMA-interacting 1 (PIN1, Homo sapiens, UniProt Q13526); fluorescence anisotropy competition; added: FITC-labelled probe): 1540 ± 270 nM
O=C(OC(C(F)(F)F)C(F)(F)F)N1CCC(CCn2ccc3ncccc32)CC1  IC50 (Faah; enzyme activity, inhibitor): 6100 nM
CN1CCc2cc(Nc3ncc(C(F)(F)F)c(NCc4cc[nH]n4)n3)ccc2C1  IC50 (MAP/microtubule affinity-regulating kinase 4 (MARK4, Homo sapiens, UniProt Q96L34); enzyme activity, inhibitor, FRET): 2.01 nM
O=C(Nc1ccc(OC(F)(F)F)cc1)N1CCC(Cc2cccc(Oc3ccc(C(F)(F)F)cn3)c2)CC1  IC50 (Faah; enzyme activity, inhibitor, fluorescence; rat brain microsomes; 60 min preincubation): 300 nM
CN(Cc1nc2ccccc2s1)C(=O)c1cccc(S(=O)(=O)N2CCc3ccccc3C2)c1  IC50 (KCNA2/KCNA1 (Homo sapiens, UniProt P16389+Q09470); potassium current, inhibitor, automated patch clamp; CHO-K1, concatemer expressing): 2710 nM
CN(C(=O)c1ccn2ncc(-c3ccc(C(N)=O)cc3)c2c1)c1ccc(C#N)cn1  IC50 (rat benzodiazepine receptor; inhibitor, radioligand binding): > 30000 nM
O=C[C@H](C[C@H]1CCNC1=O)NC(=O)[C@H](Cc1ccccc1)NC(=O)OCc1ccccc1  IC50 (Genome polyprotein, 3C protease (rhinovirus B14, UniProt P03303); 3C protease activity, inhibitor, FRET): 90 ± 10 nM
COc1cccc(CSC[C@@H](NC(=O)C(=O)O)C(=O)O)c1  IC50 (Lysine-specific demethylase 4E (KDM4E, Homo sapiens, UniProt B2RXH2); enzyme activity, inhibitor): 204000 nM
CC[C@H](C)[C@H](NC(=O)[C@H](CCC(=O)O)NC(=O)[C@@H](NC(=O)[C@H](CCC(N)=O)NC(=O)[C@@H](N)CCCCN)[C@@H](C)CC)C(=O)N[C@@H](CCCCN)C(=O)N[C@@H](CCCCN)C(=O)N[C@@H](Cc1ccccc1)C(=O)N[C@@H](CCCCN)C(=O)O  IC50 (Gap junction alpha-1 protein (GJA1, Homo sapiens, UniProt P17302); ATP release, inhibitor; C6-Cx43; 5 min, extracellular application, added: A23187 2.2 µM): ~47000 nM
COc1cc2c(cc1OC)-c1cc3ccc(OC)c(OC)c3c[n+]1CC2  IC50 (Pancreatic alpha-amylase (Homo sapiens, UniProt P04746); enzyme activity, inhibitor): 230000 nM
O=C(O)c1ccc(OCCCCCCCCCCOc2ccc(C(=O)O)cc2)cc1  IC50 (Dihydrofolate reductase type 2 (Escherichia coli, UniProt P00383); enzyme activity, inhibitor; pH 7): 285000 ± 80000 nM
CN1CCCC2(CCN(c3cc(-c4ccccc4)nc4ccnn34)C2)C1=O (centres unmarked)  IC50 (Transcriptional enhancer factor TEF-3, YAP-binding domain (TEAD4, Homo sapiens, UniProt Q15561)): 243 nM
CC(=O)Oc1cc(-c2coc3cc(OC(C)=O)c(OC(C)=O)c(OC(C)=O)c3c2=O)cc(OC(C)=O)c1OC(C)=O  IC50 (Bacillus subtilis RNase P; pre-tRNA cleavage, inhibitor, fluorescence polarization; 1% DMSO, multiple turnover, added: 50 nM fluorescein-pre-tRNA(Asp)): 820 ± 10 nM
CCCOc1cc(C)c(Cl)cc1S(=O)(=O)N(CC)CC  IC50 (Polycystin-2 (Homo sapiens, UniProt Q13563, F604P); ion current, inhibitor, two-electrode voltage clamp; Xenopus oocytes): 16900 nM
